Assay results from different studies.
A part holds a random share of what one study measured.

Sample 1 — method: RNA Bind-n-Seq; molecule type: RNA; medium: in vitro; concentration: 1 µM; notes: whole 134-nt RNA, ends assumed; together with: 150 mM KCl; baseline: input library; direction: higher = stronger binding
Target: Ras GTPase-activating protein-binding protein 1, RRM domain (G3BP1, Homo sapiens, UniProt Q13283)
UniProt Q13283, sequence (whole entry, looked up): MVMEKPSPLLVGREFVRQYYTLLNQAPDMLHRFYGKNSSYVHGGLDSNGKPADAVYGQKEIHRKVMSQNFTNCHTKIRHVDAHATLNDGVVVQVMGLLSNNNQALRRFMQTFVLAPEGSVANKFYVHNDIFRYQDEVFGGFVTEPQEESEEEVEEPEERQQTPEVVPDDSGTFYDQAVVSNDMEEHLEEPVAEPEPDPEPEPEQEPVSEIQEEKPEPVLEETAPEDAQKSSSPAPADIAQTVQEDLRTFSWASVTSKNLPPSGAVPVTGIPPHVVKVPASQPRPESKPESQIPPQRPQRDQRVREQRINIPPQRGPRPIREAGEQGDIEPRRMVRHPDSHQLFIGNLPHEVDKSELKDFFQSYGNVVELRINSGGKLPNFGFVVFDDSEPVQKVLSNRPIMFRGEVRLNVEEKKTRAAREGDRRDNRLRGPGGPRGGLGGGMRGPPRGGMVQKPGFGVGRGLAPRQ
All sequences stand within: GGGAGUUCUACAGUCCGACGAUC … UGGAAUUCUCGGGUGUCAAGG
| Strand | log2 enrichment |
| --- | --- |
| AGUCCUGUGCUACACAUCGUAUGUACCGAAUCGGGGAAAAAGGGGUGGGGUUUGGGGAAAGUAUUAUGUUACGCCGUUCGGAUCUGCACU | 0.646 |
| UUGCAGGAGCCGCCGCGCCUCGGCCUAGCAUGUCGGAAGCGGGCGAGGAGCAGCCCAUGGAGACGACGGGCGCCACCGAGAACGGACAUG | -0.524 |
| AGUCCUGUGCUACACAUCGUAUGUACCGAAUCGGGUUUUUGGGUGGGUUUUUUUGGGAAAGUAUUAUGUUACGCCGUUCGGAUCUGCACU | 0.323 |
| UGGCCCUGGUGGCAUGCGGGGAGGAAGAGGUGGCCUCAUGGAUCGUGGUGGUCCCGGUGGAUUGUUCAGAGGUGGCCGUGGUGGAGACAG | 0.878 |
| CAAGUCCUGUGCUACACAUCGUAUGUACCGAAUCGGGUUUGGGAAAAAGGGAGGGAAAGUAUUAUGUUACGCCGUUCGGAUCUGCACUUC | 0.919 |
| UGGCCCUGGUGGCAUGCGGGGAGGAAGAGGUGGCCUCAUGGAUCGUGGUGGUCCCGGUGGAAUGUUCAGAGGUGGCCAUGGUGGAGACAG | 1.15 |
| CUCAAGUCCUGUGCUACACAUCGUAUGUACCGAAUCGGUUGGGGUUGGUUGGGAAAGUAUUAUGUUACGCCGUUCGGAUCUGCACUUCCA | -0.174 |
| UGGCCCUGGUGGCAUGCGGGGAGGAAGAGGUGGCCUCAUGGGUCGUGGUGGUCCCGGUGGAAUGUUCAGAGGUGGCCGUGGUGGAGACAG | 0.847 |
| CUCAAGUCCUGUGCUACACAUCGUAUGUACCGAAUCGGGGAAGGAAGGGAAGGGAAAGUAUUAUGUUACGCCGUUCGGAUCUGCACUUCC | -0.23 |
| GUCCUGUGCUACACAUCGUAUGUACCGAAUCGGGAAAAAGGGAAAAAGGAAAAAGGGGAAAGUAUUAUGUUACGCCGUUCGGAUCUGCAC | 0.0191 |
| ACCAUGCAGGUGGGCAUCUUUGGGAAGUGGGGCAAGGGGAGGAUAGGGAGGGGGGUAACACUUUGGGAACAGGUGGUCCCAGGUCGUUUC | -0.468 |
| UAACUUUAGAGGAGGAUCUGAUGGAUAUGGCAGUGGACGUGGAUUUGGGGAUGGCUAUAAUGGGUAUGGAGUAGGACCUGGAGGUGGCAA | -0.23 |
| CCUCACCACUCCUUUCUCUUUCAUUCAGUUCCGCUCAGUGGACGAGACUACCCAGGCUAUGGCCUUUGAUGGCAUCAUCUUCCAGGGCCA | -0.102 |
| GCAGGAAGUAAAAACAAAUGGAAAUGCUUCGGAUAGUGGCAGGGGUGGGGGUUGCUAAGGAAAGGGUGGGAUGGGAGUGGGCAAAGAGUU | 0.763 |

Sample 2 — method: RNA Bind-n-Seq; molecule type: RNA; medium: in vitro; concentration: 365 nM; baseline: no-protein control; direction: higher = stronger binding
Target: RNA binding protein fox-1 homolog 2, RRM domain, GST-SBP tag (RBFOX2, Homo sapiens, UniProt O43251-10, residues 100-194)
Notes: natural RNA segment, single round, ends assumed
All sequences stand within: GGGAGUUCUACAGUCCGACGAUC … UGGAAUUCUCGGGUGCCAA
Construct (chain): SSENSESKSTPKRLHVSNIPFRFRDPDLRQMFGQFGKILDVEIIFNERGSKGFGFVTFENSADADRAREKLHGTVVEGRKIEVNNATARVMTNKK
| Strand | RBNS enrichment (R) |
| --- | --- |
| UAAGUCUGAUUCUCUUUAACUGUGUGACCAGCGGAAACAGGUGUGUGUGAACUGGGCACAGAUUGAAGAAUCUGCCCCUGUUGAGGUGGGUGGGCCUGACUGUUGCCCCC | 0.565 |
| UUUCUGGGAAGAGAUCAAAAUGGAGUCUCCUUACCAUGGACAAUACAUGCAAAGCAAUAUCUUGUUCAGGUUAGUACCCGCAAAACGGGACAUAGUAUGUGACAAUCUGC | 0.401 |
| AGAAAAAGGCUGUGGAUUCUUUGAGGACAUCACUAGAAAUCAUUCUUUGUCUCAAGUUCACACUCUUAGCAUAGAAUAUUAUUGACUAGGCUGUAUGACAUUUUGAGCUC | 0.304 |
| UUCACCUUCAUCGCAGACUGAAAGUUUCAGUUUUUAUUUUUUUCAGAAAGCACGAAAAAUUAUUUAUAAUAGUCUGGAGAAAAAACACACUGUAAUAUUUCAAGUGUAUG | 45.5 |
| UCAGAGGACUUUAUUUUCCUCUCUACCUACUCUUUUGGGUGUCACUGUCUCCAGACAGCAGGGCCCUUUGUCUCUGAGAAAUUAGCCAUCCAGAAUAGAAUCUGUAACAA | 0.206 |
| AAUUAUAUUGGCCUCUCCUUAUGUGGUGGUUUUUUUGGUAGGUCAUAGUUCCUUAUACACAGACACCUGCAUCAUCGAAGGUCUUUUUUUCCUAAAAAAAAAAAAUGGGA | 0.387 |
| AAUUCAUCACAUAAUCUUAAAUUGGAACUUUGCACGGUUCUUAGUCCAAGUGUGCUCUCCUUUCAUACAGUUUCCAUGGUGUGAGUGCUUUACUGAAGAUCUGUUUCUUU | 0.529 |
| GCUCUUCAAGAAUACAACAACUAAGAAAAGGAAGUUUCCAGAAAAGAAGUUAACAUGAACUCUUGAAGUCACACCAGGGCAACUCUUGGAAGAAAUAUAUUUGCAUAUUG | 0.274 |
| CCUCCACAGGUGCCUUAAAGGGCCCUCGUCCACCCAAGGUGGGGGGCAGGGGCCCUCACUCUCCGGCCCUGGUGUGGGGGAGAGAGUGAGGGGUUGGGGGAUCGGCAGUU | 0.616 |
| UCGCCAGCCCUGUAGAAGGCUCCUCUGCAGUGAUCAUCUCUAAUAGAGUUGUCGAGCCUUGGAAUUGAUGCAGCUGUGUAGUGAGAACACAUUUGGCCAUAUUGGUGCUG | 0.265 |
| GGUUAAAUGAGAUAGCAUUUUUAUAUCAGAGACACCAGAAUGUUGGUGGUCAACUACCUGUGCAAUAUUUAUGUCUUGAAAACCAGAUCUGAGUAUGCAUUGAACAGUGG | 1.02 |
| UGCAGACUUGAAAAAGCUCUGUCUCCAACAGGGCCUCCUCUGAUCUCAGGAGCCUCAACUGUUUAUUUUGUAGCUGAUGGCACAGUUGAGCCCAAAGCAGGUUCUAAUAA | 0.392 |

Sample 3 — method: universal PBM; molecule type: double-stranded DNA, one strand shown; medium: in vitro; concentration: not given; direction: higher = stronger binding
Target: Sal-like protein 4, full length isoform B (SALL4, Homo sapiens, UniProt Q9UJQ4-2, residues 1-616)
Notes: 8-mer, flanks averaged, mean of replicates
Construct (chain): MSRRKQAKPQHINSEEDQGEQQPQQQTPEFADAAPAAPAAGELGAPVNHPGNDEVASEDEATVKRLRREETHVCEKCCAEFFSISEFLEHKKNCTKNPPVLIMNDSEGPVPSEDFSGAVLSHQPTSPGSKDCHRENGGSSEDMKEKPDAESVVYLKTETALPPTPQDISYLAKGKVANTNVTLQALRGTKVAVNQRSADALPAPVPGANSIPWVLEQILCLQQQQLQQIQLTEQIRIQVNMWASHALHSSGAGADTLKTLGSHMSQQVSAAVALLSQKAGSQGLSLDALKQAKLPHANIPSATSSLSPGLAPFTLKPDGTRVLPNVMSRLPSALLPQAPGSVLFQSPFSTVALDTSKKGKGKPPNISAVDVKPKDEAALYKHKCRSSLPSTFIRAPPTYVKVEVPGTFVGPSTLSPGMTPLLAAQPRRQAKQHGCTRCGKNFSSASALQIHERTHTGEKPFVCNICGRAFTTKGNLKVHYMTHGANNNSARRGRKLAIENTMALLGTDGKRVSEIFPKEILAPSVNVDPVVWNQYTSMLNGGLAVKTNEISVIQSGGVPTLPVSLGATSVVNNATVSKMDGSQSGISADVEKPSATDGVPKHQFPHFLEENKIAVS
| Strand | E-score |
| --- | --- |
| ACGCAATA | 0.222 |
| CACTGTTA | 0.0346 |
| CCCGGACG | -0.367 |
| ACAATGCG | 0.0602 |
| CGTGCTGC | -0.274 |
| CTGAATTA | 0.212 |
| AGGATCCA | -0.207 |
| AAATGGCG | 0.0738 |
| AACAAAGT | 0.103 |
| TGCCTCAA | 0.00205 |
| CTGGTTTC | -0.164 |
| AGTGCCGA | -0.173 |
| CACTAATA | 0.168 |
| CGGAGACA | -0.166 |
| ACCAAGTG | -0.021 |
| CATCCTAA | 0.115 |
| TATACTCA | 0.265 |
| GGGTCTGA | -0.188 |
| ACAGCCAA | -0.0237 |
| GATCGCAC | -0.0773 |

Sample 4 — method: protein-binding microarray; molecule type: double-stranded DNA, one strand shown; medium: in vitro; concentration: 250 nM; notes: 60-bp whole probe; together with: salmon DNA 0.4 mg/ml; baseline: random background probes; direction: higher = stronger binding; all sequences stand within: GCCTAGCAC … GTCTTGATTCGCTTGACGCTGCTG
Target: Interferon regulatory factor 7, full length, phosphomimetic (IRF7, Homo sapiens, UniProt Q92985, residues 1-503, S101K/S471D/S472D/S475D/S476D/S477D/S483D/S484D/S487D)
UniProt Q92985, sequence (whole entry, unmodified, looked up): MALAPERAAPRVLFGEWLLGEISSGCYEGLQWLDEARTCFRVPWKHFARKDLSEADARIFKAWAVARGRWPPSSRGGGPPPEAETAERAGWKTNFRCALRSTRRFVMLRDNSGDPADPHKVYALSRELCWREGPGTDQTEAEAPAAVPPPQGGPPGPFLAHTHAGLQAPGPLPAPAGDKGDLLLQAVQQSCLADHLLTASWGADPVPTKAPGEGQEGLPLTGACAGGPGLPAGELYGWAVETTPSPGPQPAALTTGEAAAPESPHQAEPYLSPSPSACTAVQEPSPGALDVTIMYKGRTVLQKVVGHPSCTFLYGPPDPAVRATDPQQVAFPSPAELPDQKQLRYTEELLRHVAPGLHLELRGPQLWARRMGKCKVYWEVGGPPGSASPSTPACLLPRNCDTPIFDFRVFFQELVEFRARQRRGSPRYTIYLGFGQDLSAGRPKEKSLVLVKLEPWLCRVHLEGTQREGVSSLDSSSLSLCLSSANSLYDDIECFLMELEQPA
| Strand | log fluorescence |
| --- | --- |
| TTAGATATCAGTTTCGAGTAGTGCTAG | 4.56 z-score |
| TTTTTTATCAATCATTTTAGTGTGCTA | 1 z-score |
| GACGCACTGGGGTTTCGGGACGTGCTA | 1.23 z-score |
| TTGGGTATCGGTATCGGTTAGTGCTAG | 1.97 z-score |
| CCACTCTTCCTTTACTTTCTGTGCTAG | 1.1 z-score |
| TTAGAACTGGGGTATCAATTAGTGCTA | -0.358 z-score |
| GACGGTTACCTTTTCCTGACGTGCTAG | 0.806 z-score |
| TTAAATTTCAGTCTCGATTAGTGCTAG | 2.01 z-score |
| TTAGGACTGCTACTACTTTAGTGCTAG | -0.251 z-score |
| TTAGGTTCACTTTTCCTTTAGTGCTAG | 3.88 z-score |
| GACGAACTGAGACTTGAGACGTGCTAG | 0.358 z-score |
| TTAGGTATAGGGTATCGGTTAGTGCTA | 0.293 z-score |
| TTAGGTCTCCTTCTCCATTAGTGCTAG | 0.588 z-score |
| TTAGGTATCGACTATCGGTCAGTGCTA | 0.0607 z-score |
| TTAGGTTTCGACACTGGATTAGTGCTA | 3.78 z-score |
| TTCTTTATGCACTCTCTACATGTGCTA | 0.656 z-score |
| GGCGATCTCAGTCTCGAGACGTGCTAG | -0.219 z-score |
| GACGGTATCGACTTCCGGGACGTGCTA | 1.35 z-score |
